# Published values from different studies.
# Several values in a cell are separate wells, animals, samples, runs or records. ± gives the spread as reported.
# FKBP5: Peptidyl-prolyl cis-trans isomerase FKBP5 (FKBP5, Homo sapiens, UniProt Q13451)
# Sequence of UniProt Q13451 (whole entry, looked up): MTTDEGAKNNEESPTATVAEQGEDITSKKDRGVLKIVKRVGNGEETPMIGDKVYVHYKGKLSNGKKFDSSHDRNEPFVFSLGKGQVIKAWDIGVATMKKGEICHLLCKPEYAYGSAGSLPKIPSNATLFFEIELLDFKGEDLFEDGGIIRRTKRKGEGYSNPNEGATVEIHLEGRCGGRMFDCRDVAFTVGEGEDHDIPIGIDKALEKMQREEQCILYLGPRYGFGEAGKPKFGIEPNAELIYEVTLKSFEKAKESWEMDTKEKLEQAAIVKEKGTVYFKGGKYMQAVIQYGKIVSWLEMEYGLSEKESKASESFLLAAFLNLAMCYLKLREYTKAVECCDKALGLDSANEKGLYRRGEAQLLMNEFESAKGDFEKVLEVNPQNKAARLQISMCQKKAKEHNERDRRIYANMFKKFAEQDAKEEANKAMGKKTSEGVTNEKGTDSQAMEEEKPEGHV
# CA2: Carbonic anhydrase 2 (CA2, Bos taurus, UniProt P00921)
# Sequence of UniProt P00921 (whole entry, looked up): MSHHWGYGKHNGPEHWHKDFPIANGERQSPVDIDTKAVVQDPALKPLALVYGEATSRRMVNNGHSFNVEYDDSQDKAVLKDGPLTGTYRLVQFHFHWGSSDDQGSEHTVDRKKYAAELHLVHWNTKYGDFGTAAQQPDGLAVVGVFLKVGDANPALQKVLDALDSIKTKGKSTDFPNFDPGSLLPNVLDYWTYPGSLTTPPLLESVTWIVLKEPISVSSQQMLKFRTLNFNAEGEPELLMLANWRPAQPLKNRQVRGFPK
# KAI2: KAI2 (Arabidopsis thaliana, UniProt Q9SZU7)
# Sequence of UniProt Q9SZU7 (whole entry, looked up): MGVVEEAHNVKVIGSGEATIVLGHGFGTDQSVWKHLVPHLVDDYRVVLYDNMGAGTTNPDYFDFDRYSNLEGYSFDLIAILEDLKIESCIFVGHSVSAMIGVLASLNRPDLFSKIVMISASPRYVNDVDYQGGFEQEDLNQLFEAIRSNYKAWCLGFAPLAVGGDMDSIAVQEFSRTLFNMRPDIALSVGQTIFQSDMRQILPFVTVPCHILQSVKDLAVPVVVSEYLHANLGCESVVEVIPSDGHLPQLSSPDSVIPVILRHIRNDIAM
# Sequence of UniProt O75030 (whole entry, looked up): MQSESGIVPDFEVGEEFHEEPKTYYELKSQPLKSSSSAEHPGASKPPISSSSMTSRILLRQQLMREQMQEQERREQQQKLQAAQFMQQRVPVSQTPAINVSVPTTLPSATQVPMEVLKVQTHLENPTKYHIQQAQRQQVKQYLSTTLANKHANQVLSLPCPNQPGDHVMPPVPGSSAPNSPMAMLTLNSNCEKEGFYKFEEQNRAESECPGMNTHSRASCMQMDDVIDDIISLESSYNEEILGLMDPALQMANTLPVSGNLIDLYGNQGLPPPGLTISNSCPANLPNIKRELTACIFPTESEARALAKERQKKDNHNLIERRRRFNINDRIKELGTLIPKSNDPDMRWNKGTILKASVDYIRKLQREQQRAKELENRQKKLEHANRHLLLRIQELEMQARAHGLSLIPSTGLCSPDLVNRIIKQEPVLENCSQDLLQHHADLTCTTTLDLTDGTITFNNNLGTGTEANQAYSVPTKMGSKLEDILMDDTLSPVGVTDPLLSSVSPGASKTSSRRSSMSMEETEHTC
# Sequence of UniProt Q9NRM7 (whole entry, looked up): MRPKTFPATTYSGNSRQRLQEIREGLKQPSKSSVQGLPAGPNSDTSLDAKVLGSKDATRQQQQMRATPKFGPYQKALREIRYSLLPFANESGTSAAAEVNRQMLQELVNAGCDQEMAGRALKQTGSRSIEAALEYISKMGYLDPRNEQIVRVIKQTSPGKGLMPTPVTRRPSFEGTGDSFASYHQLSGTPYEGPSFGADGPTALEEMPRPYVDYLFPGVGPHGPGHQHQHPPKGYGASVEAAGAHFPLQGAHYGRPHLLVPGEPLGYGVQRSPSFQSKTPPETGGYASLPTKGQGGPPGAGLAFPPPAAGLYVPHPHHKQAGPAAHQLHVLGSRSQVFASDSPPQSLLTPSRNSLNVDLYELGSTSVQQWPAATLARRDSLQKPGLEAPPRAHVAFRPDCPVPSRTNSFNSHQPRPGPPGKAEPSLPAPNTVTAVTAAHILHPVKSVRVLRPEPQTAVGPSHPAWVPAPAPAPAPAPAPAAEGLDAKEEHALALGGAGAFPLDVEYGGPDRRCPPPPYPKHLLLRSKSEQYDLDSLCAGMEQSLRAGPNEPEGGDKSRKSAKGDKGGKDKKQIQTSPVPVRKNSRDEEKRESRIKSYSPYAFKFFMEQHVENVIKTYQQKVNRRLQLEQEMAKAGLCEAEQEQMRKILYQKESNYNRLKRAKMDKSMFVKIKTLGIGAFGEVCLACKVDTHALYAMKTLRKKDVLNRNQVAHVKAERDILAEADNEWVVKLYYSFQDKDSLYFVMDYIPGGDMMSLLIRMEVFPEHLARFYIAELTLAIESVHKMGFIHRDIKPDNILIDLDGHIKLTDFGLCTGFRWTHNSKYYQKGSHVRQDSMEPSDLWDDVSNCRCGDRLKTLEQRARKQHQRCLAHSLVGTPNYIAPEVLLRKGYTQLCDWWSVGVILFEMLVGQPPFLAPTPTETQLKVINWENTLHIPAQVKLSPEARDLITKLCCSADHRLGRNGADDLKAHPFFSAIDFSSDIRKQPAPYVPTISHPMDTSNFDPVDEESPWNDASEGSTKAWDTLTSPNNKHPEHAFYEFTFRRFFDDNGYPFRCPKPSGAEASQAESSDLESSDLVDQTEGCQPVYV
# Sequence of UniProt P17706 (whole entry, looked up): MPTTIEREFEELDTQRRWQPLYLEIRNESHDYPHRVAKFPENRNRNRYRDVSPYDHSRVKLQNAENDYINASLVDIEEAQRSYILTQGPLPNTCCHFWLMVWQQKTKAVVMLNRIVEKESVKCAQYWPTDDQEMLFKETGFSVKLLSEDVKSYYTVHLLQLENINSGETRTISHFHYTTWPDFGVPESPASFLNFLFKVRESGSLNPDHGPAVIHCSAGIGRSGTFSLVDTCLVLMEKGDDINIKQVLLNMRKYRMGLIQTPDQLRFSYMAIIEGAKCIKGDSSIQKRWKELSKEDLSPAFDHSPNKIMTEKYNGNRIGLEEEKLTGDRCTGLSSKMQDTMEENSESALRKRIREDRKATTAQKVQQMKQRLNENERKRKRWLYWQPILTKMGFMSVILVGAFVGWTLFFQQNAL
# Sequence of UniProt P51451 (whole entry, looked up): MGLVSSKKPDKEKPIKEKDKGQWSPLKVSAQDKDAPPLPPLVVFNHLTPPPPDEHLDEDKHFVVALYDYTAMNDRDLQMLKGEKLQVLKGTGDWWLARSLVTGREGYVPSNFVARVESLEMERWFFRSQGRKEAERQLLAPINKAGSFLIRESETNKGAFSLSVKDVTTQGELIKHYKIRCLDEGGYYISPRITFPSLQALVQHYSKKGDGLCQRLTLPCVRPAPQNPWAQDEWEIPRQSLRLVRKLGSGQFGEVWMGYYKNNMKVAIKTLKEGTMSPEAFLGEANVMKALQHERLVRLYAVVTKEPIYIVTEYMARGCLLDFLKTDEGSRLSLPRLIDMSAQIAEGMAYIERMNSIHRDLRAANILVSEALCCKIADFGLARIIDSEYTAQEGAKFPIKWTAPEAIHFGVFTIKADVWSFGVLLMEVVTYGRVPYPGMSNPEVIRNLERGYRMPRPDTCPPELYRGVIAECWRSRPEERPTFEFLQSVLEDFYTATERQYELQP
# Sequence of UniProt Q91XB0 (whole entry, looked up): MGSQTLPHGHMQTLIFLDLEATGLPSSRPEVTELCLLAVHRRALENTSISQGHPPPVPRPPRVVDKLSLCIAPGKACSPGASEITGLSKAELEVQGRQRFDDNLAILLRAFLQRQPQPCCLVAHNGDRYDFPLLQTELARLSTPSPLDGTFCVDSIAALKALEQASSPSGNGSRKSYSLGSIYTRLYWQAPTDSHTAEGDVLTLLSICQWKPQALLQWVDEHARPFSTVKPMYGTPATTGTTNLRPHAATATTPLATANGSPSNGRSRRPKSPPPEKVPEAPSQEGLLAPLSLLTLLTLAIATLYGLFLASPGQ
SMILES,target,test,test system,conditions,Kd
O=C(Nc1ccc(C(=O)Nc2ccc3c(O)cc(S(=O)(=O)O)cc3c2)cc1)c1ccccc1,"Trex1 (Mus musculus, UniProt Q91XB0)","binding, fluorescence",,,39.1 µM
C=CC1CN(Cc2ccccn2)C(=O)C2CCCC1N2S(=O)(=NC1C=CCCC1)c1cc(Cl)cc(Cl)c1 (mixture of isomers),FKBP5,"ligand displacement, FP",,,> 40 µM
C=CC(=O)N1CC2(CCN(c3nc(OC4CCN(CCCOC)CC4)nc4c(OCC(F)(F)F)c(-c5c(C)ccc6[nH]ncc56)c(C5CC5)cc34)CC2)C1,"GTPase KRas, GDP-bound (KRAS, Homo sapiens, UniProt P01116)",,,,1.33 ± 0.22 µM
CC[C@H](C)[C@H](NC(=O)[C@H](CC(=O)N[C@@H]1O[C@H](CO)[C@@H](O[C@@H]2O[C@H](CO)[C@@H](O[C@@H]3O[C@H](CO[C@H]4O[C@H](CO[C@H]5O[C@H](CO)[C@@H](O)[C@H](O)[C@@H]5O)[C@@H](O)[C@H](O[C@H]5O[C@H](CO)[C@@H](O)[C@H](O)[C@@H]5O)[C@@H]4O)[C@@H](O)[C@H](O[C@H]4O[C@H](CO)[C@@H](O)[C@H](O)[C@@H]4O)[C@@H]3O)[C@H](O)[C@H]2NC(C)=O)[C@H](O)[C@H]1NC(C)=O)NC(=O)[C@H](Cc1ccccc1)NC(=O)[C@H](CO)NC(=O)[C@H](CO)NC(=O)[C@H](Cc1c[nH]cn1)NC(=O)[C@H](CSCC(N)=O)NC(=O)[C@@H](NC(=O)CCCCCNC(=O)CCCC[C@@H]1SC[C@@H]2NC(=O)N[C@@H]21)C(C)C)C(=O)N[C@H](C(=O)N[C@H](C(=O)N[C@@H](CC(=O)O)C(=O)N[C@H](C(=O)N[C@@H](CCCCN)C(=O)N[C@@H](CC(=O)O)C(=O)N[C@@H](CCCNC(=N)N)C(=O)N[C@@H](CCCCN)C(=O)N[C@@H](CCC(N)=O)C(=O)N[C@@H](CCCCN)C(=O)N[C@H](C(=O)N[C@@H](CC(N)=O)C(=O)N[C@@H](C)C(=O)N[C@H](C(=O)N[C@@H](CSCC(N)=O)C(=O)N[C@@H](Cc1ccc(O)cc1)C(N)=O)[C@@H](C)O)C(C)C)C(C)C)[C@@H](C)O)[C@@H](C)O,PG9 Fab (human),"binding, SPR",,"25 °C, immobilized V1V2 glycopeptide",319 ± 9 µM
C=CC(=O)N1C[C@H](C)N(c2nc(OC[C@@]34CCCN3C[C@H](F)C4)nc3c(F)c(-c4ccc(F)c5sc(N)c(C#N)c45)c(C(F)(F)F)cc23)C[C@H]1C,"GTPase KRas, GDP-bound (KRAS, Homo sapiens, UniProt P01116, G12V)",SPR,,,0.00328 ± 0.0011 µM
NS(=O)(=O)c1ccc(CCN2C(=O)c3ccc(N4CCOCC4)cc3C2=O)cc1,CA2,binding,,,0.37 µM
CN(C)c1ccc(/C=C/c2cc(/C=C3\Sc4ccccc4N3CCCN3CCCC3)c3ccccc3[n+]2C)cc1,VEGF DNA,isothermal titration calorimetry,,"pH 7.4, 25 °C, 2% DMSO",16.6 µM
O=C(N1CCc2ccccc21)n1ccnc1,KAI2,isothermal titration calorimetry,,,115 µM and 92.6 µM
O=C1[C@@H]2CCC[C@H]([C@@H](C(O)CO)CN1Cc1ccccn1)N2S(=O)(=O)c1cc(Cl)cc(Cl)c1 (stereo partly shown),FKBP5,"ligand displacement, FP",,,0.03 µM
NS(=O)(=O)c1ccc(CN2C(=O)c3ccc(N4CCOCC4)cc3C2=O)cc1,CA2,binding,,,0.3 µM
CC(C)(C)n1cc(CN(Cc2cn(CCOCCOCCOCCOCCOCCO)nn2)Cc2cn(C(C)(C)C)nn2)nn1,Cu(I),"binding, bicinchoninic acid competition",,"2000 µM, together with: bicinchoninic acid 40 µM",0.000209 µM
CN(C)c1ccc2c(c1)C(=O)N(CCc1ccc(O)cc1)C2=O,CA2,binding,,,12.9 µM and ~13 µM
CC(C)(C)n1cc(CN(Cc2cn(CC(=O)O)nn2)Cc2cn(C(C)(C)C)nn2)nn1,Cu(I),"binding, bicinchoninic acid competition",,"2000 µM, together with: bicinchoninic acid 40 µM",0.000137 µM
O=C(N1CCc2ccccc21)n1nccn1,KAI2,"binding, ITC",,,316 µM
C=CC(=O)N1CCCN(C(=O)c2cc(Sc3cnc(NC(=O)C4CC4)s3)c(C)cc2OC)C[C@H]1C,"BLK (Homo sapiens, UniProt P51451)","binding, competition with immobilised ligand",,,4.7 µM
O=C(c1ccco1)N1CCc2ccccc21,KAI2,ITC,,mean of replicates,240 µM
CC1(C)C[C@@H](Nc2cccc(-c3sc(C(=O)O)c(OCC(=O)O)c3Cl)c2)CCN1S(=O)(=O)Cc1cccc(NC(=O)CN2CCC(c3ccc4c(c3)oc(=O)n4C3CCC(=O)NC3=O)CC2)c1 (stereo partly shown),"PTPN2 (Homo sapiens, UniProt P17706)","binding, BLI",,,0.085 µM
Cc1cccc2c1N(C(=O)n1ccnc1)CC2,KAI2,isothermal titration calorimetry,,,14.7 µM and 15.2 µM
NS(=O)(=O)c1nnc(N2C(=O)c3cccc4c(N5CCOCC5)ccc(c34)C2=O)s1,CA2,binding,,,0.2 µM
CC(CCc1ccccc1)NCC(O)c1ccc(O)c(C(N)=O)c1 (stereo not shown),"chemotaxis protein CheW (Vibrio campbellii, UniProt A0A0A3EMQ5)",,,,0.64 ± 0.56 µM
Cc1cccc2c1N(C(=O)n1nccn1)CC2,KAI2,isothermal titration calorimetry,,,248 µM and 214 µM and 168 µM
C=C[C@H]1CN(Cc2ccccn2)C(=O)[C@@H]2CCC[C@H]1N2[S@@+]([O-])c1cc(Cl)cc(Cl)c1,FKBP5,"ligand displacement, FP",,,4.78 µM
Cc1cccc2c1N(C(=O)n1ccnn1)CC2,KAI2,ITC,,wild-type protein,28.2 µM and 26.9 µM and 27.9 µM
Cc1cc(C#CC2(O)CCCCC2)cc2c1cc(C(=O)O)n2-c1cccc(Cl)c1,"Microphthalmia-associated transcription factor (Homo sapiens, UniProt O75030)","binding, ITC",,,0.385 µM
O=C(N1CCc2ccccc21)n1ccnn1,KAI2,isothermal titration calorimetry,,,207 µM and 192 µM
Cc1c[nH]c2nccc(-c3ccc(C(=O)N[C@@H]4c5c(F)cc(C(F)F)cc5C[C@@H]4O)cn3)c12,"LATS2 (Homo sapiens, UniProt Q9NRM7)","binding, competition with immobilised ligand",,,0.14 µM
O=C(N1CCc2cccc(Cl)c21)n1ccnn1,KAI2,"binding, ITC",,,179 µM
Cn1ncc2cc(-c3cncc(Cl)c3N3CCC4(CCNC4=O)CC3)ccc21,MED14 human,SILAC competition,LS174T-L5 lysate,,0.004 µM
